Measured values gathered from unrelated publications.
Lines come from different studies, so protocols differ. Several values in a cell are separate wells, animals, samples, runs or records. ± marks the error that the study gave.
B1: UGT1A9 (Homo sapiens, UniProt O60656); chain GKLLVVPMDGSHWFTMRSVVEKLILRGHEVVVVMPEVSWQLGRSLNCTVKTYSTSYTLEDLDREFKAFAHAQWKAQVRSIYSLLMGSYNDIFDLFFSNCRSLFKDKKLVEYLKESSFDAVFLDPFDNCGLIVAKYFSLPSVVFARGILCHYLEEGAQCPAPLSYVPRILLGFSDAMTFKERVRNHIMHLEEHLLCHRFFKNALEIASEILQTPVTEYDLYSHTSIWLLRTDFVLDYPKPVMPNMIFIGGINCHQGKPLPMEFEAYINASGEHGIVVFSLGSMVSEIPEKKAMAIADALGKIPQTVLWRYTGTRPSNLANNTILVKWLPQNDLLGHPMTRAFITHAGSHGVYESICNGVPMVMMPLFGDQMDNAKRMETKGAGVTLNVLEMTSEDLENALKAVINDKSYKENIMRLSSLHKDRPVEPLDLAVFWVEFVMRHKGAPHLRPAAHDLTWYQYHSLDVIGFLLAVVLTVAFITFKCCAYGYRKCLGKKGRVKKAHKSKTH
B2: α-TTP I202D; sequence looked up; chain MAEARSQPSAGPQLNALPDHSPLLQPGLAALRRRAREAGVPLAPLPLTDSFLLRFLRARDFDLDLAWRLLKNYYKWRAECPEISADLHPRSIIGLLKAGYHGVLRSRDPTGSKVLIYRIAHWDPKVFTAYDVFRVSLITSELIVQEVETQRNGIKAIFDLEGWQFSHAFQITPSVAKKIAAVLTDSFPLKVRGIHLINEPVDFHAVFSMIKPFLTEKIKERIHMHGNNYKQSLLQHFPDILPLEYGGEEFSMEDICQEWTNFIMKSEDYLSSISESIQ
B3: Pcf11 CID D117A; chain DTEVIVKDFNSILEELTFNSRPIITTLTKLAEENISCAQYFVDAIESRIEKCMPKQKLYAFYALDSICKNVGSPYTIYFSRNLFNLYKRTYLLVDNTTRTKLINMFKLWLNPNATGLPLFEGSALEKIEQFLIKAS
Chain of UniProt P33424 (whole entry, looked up): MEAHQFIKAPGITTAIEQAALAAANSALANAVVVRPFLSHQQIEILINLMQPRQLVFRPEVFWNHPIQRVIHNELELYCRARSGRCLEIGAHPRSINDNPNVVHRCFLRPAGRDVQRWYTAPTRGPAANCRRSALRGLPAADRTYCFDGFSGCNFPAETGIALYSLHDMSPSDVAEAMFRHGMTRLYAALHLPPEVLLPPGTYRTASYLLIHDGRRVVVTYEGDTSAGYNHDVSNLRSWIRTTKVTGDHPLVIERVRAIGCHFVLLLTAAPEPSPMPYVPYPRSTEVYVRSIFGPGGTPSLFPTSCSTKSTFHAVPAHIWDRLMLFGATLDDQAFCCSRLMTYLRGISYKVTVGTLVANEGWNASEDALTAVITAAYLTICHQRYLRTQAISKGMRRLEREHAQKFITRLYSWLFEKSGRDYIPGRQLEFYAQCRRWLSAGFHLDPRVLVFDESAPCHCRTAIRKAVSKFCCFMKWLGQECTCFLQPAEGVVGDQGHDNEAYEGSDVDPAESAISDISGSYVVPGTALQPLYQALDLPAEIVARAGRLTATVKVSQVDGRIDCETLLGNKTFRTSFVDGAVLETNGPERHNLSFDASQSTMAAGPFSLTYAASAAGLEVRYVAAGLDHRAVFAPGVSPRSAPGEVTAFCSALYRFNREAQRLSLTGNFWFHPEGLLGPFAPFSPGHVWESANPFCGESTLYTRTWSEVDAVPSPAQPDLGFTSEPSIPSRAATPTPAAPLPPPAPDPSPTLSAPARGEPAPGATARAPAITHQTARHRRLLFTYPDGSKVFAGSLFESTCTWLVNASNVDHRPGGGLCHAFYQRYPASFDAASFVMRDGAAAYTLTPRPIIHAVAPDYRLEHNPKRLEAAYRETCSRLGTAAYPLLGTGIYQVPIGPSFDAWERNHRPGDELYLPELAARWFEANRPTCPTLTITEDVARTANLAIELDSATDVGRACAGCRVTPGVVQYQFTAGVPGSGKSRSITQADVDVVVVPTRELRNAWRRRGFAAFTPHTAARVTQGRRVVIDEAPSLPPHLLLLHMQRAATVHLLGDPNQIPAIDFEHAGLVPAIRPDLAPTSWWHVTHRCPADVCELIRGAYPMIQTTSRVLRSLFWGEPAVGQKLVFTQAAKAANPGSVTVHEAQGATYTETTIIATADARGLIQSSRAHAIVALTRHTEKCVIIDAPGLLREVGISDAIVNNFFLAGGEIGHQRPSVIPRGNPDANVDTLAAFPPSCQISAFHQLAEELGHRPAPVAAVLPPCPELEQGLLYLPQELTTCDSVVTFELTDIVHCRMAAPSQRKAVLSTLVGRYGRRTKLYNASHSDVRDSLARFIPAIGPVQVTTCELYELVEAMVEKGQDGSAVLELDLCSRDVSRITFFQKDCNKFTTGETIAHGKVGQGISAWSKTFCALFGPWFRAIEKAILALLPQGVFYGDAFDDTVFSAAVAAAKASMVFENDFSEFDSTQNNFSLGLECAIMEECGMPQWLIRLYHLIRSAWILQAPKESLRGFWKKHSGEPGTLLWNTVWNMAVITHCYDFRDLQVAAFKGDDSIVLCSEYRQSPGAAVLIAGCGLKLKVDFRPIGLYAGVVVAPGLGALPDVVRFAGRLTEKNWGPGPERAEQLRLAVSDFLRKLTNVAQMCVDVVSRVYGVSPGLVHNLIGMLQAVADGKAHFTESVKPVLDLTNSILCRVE
Chain of UniProt Q9Y253 (whole entry, looked up): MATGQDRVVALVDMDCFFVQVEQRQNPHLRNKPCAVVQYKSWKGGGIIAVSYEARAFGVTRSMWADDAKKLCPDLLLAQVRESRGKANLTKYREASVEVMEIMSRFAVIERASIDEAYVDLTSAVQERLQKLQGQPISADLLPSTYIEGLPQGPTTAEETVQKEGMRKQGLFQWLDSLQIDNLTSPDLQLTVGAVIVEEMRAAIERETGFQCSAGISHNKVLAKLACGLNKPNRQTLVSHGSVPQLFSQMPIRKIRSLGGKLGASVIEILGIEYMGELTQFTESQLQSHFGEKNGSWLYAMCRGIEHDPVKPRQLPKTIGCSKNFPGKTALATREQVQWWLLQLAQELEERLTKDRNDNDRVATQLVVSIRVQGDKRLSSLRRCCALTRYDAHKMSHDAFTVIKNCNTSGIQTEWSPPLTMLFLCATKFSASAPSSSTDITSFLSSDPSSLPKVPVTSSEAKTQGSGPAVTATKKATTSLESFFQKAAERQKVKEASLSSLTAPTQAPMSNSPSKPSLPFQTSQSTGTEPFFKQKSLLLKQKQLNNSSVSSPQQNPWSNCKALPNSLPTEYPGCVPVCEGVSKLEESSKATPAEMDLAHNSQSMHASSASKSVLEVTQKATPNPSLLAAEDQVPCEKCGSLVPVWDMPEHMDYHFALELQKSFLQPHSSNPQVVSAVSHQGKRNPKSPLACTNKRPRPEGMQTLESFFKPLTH
Chain of UniProt P00520 (whole entry, looked up): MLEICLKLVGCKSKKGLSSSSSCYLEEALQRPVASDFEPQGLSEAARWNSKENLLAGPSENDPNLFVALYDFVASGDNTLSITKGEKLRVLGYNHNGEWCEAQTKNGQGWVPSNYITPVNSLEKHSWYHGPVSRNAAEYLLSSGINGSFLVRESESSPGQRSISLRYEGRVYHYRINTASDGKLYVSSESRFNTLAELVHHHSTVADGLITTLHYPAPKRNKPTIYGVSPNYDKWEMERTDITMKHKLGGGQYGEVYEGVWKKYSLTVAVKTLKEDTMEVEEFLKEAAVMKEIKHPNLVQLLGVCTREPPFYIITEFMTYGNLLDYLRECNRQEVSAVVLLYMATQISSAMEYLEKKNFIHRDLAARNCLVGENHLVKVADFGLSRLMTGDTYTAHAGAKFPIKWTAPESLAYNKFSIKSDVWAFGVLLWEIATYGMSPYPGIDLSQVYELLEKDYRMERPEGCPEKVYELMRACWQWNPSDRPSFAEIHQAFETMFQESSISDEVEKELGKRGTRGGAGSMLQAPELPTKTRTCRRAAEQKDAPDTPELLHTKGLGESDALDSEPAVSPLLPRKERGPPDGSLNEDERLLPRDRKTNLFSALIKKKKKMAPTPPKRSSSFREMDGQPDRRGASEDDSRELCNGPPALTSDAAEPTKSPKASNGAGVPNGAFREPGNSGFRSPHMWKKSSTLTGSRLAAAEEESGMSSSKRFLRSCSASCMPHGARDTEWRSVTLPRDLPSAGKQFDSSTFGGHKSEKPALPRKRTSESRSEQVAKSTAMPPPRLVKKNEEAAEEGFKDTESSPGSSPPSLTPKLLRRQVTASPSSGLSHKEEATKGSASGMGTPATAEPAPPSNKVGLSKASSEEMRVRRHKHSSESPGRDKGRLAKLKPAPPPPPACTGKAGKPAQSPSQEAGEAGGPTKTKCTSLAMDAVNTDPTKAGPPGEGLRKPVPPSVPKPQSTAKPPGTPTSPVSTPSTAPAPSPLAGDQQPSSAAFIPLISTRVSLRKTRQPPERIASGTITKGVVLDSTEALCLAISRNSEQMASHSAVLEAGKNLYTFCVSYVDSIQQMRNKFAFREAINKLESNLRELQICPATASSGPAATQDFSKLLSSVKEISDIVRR
Chain of UniProt P35240 (whole entry, looked up): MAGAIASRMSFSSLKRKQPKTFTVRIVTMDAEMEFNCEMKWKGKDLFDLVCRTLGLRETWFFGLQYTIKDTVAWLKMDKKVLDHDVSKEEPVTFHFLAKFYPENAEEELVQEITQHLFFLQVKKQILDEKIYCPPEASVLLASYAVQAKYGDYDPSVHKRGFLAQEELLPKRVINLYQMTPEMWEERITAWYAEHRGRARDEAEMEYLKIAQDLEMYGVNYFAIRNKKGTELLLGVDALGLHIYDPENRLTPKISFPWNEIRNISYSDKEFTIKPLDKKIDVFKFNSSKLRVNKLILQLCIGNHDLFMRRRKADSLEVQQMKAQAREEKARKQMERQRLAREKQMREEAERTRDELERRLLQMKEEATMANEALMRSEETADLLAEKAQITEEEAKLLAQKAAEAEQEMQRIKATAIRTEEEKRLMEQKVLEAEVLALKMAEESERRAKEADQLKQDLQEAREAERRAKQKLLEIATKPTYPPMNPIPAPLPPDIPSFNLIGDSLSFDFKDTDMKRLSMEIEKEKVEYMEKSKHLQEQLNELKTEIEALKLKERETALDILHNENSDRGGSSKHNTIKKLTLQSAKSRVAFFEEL
Chain of UniProt Q7Z1V1 (whole entry, looked up): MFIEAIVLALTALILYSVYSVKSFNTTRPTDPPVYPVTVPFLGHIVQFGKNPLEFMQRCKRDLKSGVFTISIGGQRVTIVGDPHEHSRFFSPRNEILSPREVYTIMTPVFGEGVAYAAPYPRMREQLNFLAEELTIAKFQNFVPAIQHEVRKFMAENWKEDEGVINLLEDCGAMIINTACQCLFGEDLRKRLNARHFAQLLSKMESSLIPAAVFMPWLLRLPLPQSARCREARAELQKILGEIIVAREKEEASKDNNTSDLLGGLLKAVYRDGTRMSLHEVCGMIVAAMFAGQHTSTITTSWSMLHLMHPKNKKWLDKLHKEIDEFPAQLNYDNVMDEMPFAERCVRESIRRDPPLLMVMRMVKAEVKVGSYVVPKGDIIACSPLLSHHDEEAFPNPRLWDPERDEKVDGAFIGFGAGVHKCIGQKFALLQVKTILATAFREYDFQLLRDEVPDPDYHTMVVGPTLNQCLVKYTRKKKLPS
Chain of UniProt P49650 (whole entry, looked up): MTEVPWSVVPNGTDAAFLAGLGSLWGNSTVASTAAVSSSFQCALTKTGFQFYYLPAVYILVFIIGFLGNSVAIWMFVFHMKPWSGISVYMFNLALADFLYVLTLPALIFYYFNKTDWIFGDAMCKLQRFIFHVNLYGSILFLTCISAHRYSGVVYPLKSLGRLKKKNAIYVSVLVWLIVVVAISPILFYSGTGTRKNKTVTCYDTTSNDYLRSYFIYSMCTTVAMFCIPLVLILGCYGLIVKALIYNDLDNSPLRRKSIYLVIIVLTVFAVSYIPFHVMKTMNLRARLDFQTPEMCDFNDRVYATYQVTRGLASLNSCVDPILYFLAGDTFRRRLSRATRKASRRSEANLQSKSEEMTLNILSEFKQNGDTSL

| Substance | target or system | assay | test system | conditions | endpoint | result |
| --- | --- | --- | --- | --- | --- | --- |
| B1 (UGT1A9) | O=c1cc(-c2ccc(O)cc2)oc2cc(O)cc(O)c12 | steady-state kinetics | – | pH 7.4, 37 °C | Vmax | 0.00329 µmol/min/mg |
| CARLSLSWRGLTLCPSK (68Ga-DOTA-labelled) | mouse VAP-1 | ex vivo biodistribution | peptide, wild-type mouse, B16 melanoma xenograft, blood | 60 min, added: 500-fold excess unlabelled DOTA-peptide | uptake | 0.2 ± 0.02 SUV |
| CCCCCCCC(=O)OC[C@H](COP(=O)(O)O[C@@H]1[C@H](O)[C@H](O)[C@@H](OP(=O)(O)O)[C@H](OP(=O)(O)O)[C@H]1O)OC(=O)CCCCCCC | Pleckstrin homology domain-containing family A member 7 (Homo sapiens, UniProt Q6IQ23) | binding, ITC | – | pH 7.6 | Kd | 4 µM |
| Nc1ncnc2c1ncn2[C@@H]1O[C@H](COP(=O)(O)OP(=O)(O)O)[C@@H](O)[C@H]1O | PMVK (Homo sapiens, UniProt Q15126) | binding, NMR | – | pH 6.5 | Kd | 19 µM |
| B2 (α-TTP I202D) | alpha-tocopherol transfer protein variants | binding, fluorescence titration | – | added: NBD-Toc | Kd | 0.026 µM |
| Nc1nc2c(nc(SCCNc3ccc([N+](=O)[O-])c4nonc34)n2[C@@H]2O[C@@H]3COP(=O)(O)O[C@@H]3C2O)c(=O)[nH]1 (stereo partly drawn) | Cyclic nucleotide-gated potassium channel (Spirochaeta thermophila, UniProt G0GA88) | binding, fluorescence titration | amphipol A8-35 | single titration | Kd | 2 µM |
| YFCHQYL | – | – | peptide, human polyclonal IgM RF AGER | concentration not given, 5 µg/mL mAb II-481 coated, added: RF at 50% max binding concentration | inhibition | 44% |
| phosphatidylinositol 4,5-bisphosphate | NF2 (Homo sapiens, UniProt P35240) | isothermal titration calorimetry | – | pH 7.5, 25 °C | Kd | 0.65 ± 0.169 µM |
| O=C(N[C@H](Cn1ccnc1)c1ccc(Cl)cc1Cl)c1ccc(-c2nnc(-c3ccccc3)o2)cc1 (single isomer, unassigned) | CYP51 (Trypanosoma cruzi, UniProt Q7Z1V1) | binding, absorbance | – | – | Kd | 0.12 µM |
| CC(C)OC(=O)[C@H](C)N[P@](=O)(OC[C@H]1O[C@@H](n2ccc(=O)[nH]c2=O)[C@](C)(F)[C@@H]1O)Oc1ccccc1 | Non-structural polyprotein pORF1, RNA-dependent RNA polymerase (Hepatitis E virus genotype 1, UniProt P33424) | binding, microscale thermophoresis | – | – | Kd | 0.015 µM and ~0.015 µM |
| Nc1ccn([C@H]2C[C@H](O)[C@@H](COP(=O)(O)OP(=O)(O)OP(=O)(O)O)O2)c(=O)n1 | DNA polymerase eta (POLH, Homo sapiens, UniProt Q9Y253) | substrate | – | pH 8.0, 37 °C, pre-steady-state, Mg2+, added: dNTP opposite O2-Me-dT template | Kd | 32 ± 15 µM |
| CCCC(=O)OC[C@H](COP(=O)(O)O[C@H]1[C@H](O)[C@@H](OP(=O)(O)O)[C@H](OP(=O)(O)O)[C@@H](OP(=O)(O)O)[C@H]1O)OC(=O)CCC | Tyrosine-protein kinase ABL1, SH2 domain (Abl1, Mus musculus, UniProt P00520) | HSQC NMR titration | – | SH2 domain, no KCl | Kd | 200 ± 7 µM |
| LHNHYT | – | – | peptide, human polyclonal IgM RF LOP | concentration not given, 5 µg/mL mAb II-481 coated, added: RF at 50% max binding concentration | inhibition | 0% |
| CNc1nc(I)nc2c1ncn2[C@H]1C[C@H](OP(=O)(O)O)[C@]2(COP(=O)(O)O)C[C@H]12 [iodine-125 labelled] | P2Y purinoceptor 1 (P2ry1, Mus musculus, UniProt P49650) | saturation binding | mouse platelets | 37 °C | Kd | 0.0012 µM |
| B3 (Pcf11 CID D117A) | Saccharomyces cerevisiae CTD-binding protein | fluorescence anisotropy competition | – | pH 7.4, first binding event, added: four-heptad Ser2P CTD peptide | Kd | 40 µM |

For quick reference, copied from above:
| Substance | target or system | assay | test system | conditions | endpoint | result |
| --- | --- | --- | --- | --- | --- | --- |
| B1 (UGT1A9) | O=c1cc(-c2ccc(O)cc2)oc2cc(O)cc(O)c12 | steady-state kinetics | – | pH 7.4, 37 °C | Vmax | 0.00329 µmol/min/mg |
